# Results of several laboratories.
# Parts stem from different laboratories: compare values within a part only. Positions count from the first letter of the parent shown.

# Sample 1
# Target: FOSB, bZIP domain (human)
# Technique: DHFR protein complementation
# Sample: yeast
# Notes: single substitutions, most at no-binding floor
# Relative to: wild-type JUN-FOS pair
# Direction: higher = stronger binding
# Starting sequence: JUN, bZIP domain (human); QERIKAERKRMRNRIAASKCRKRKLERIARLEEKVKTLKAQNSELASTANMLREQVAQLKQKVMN; partner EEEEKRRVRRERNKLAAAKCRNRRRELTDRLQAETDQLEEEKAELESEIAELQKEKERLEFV
Substitution,binding fitness
A46Y,-0.254 natural log
I28R,-0.168 natural log
L31Q,-0.323 natural log
A46L,-0.112 natural log
E54A,-0.117 natural log
L31Y,-0.394 natural log
A57T,-0.156 natural log
R53M,-0.709 natural log
A46M,-0.107 natural log
Q41M,-0.166 natural log
A49Y,-0.415 natural log
M51R,-0.0396 natural log
N42Q,-0.711 natural log
A46T,-0.0313 natural log
M51Q,-0.00361 natural log
K36W,-0.388 natural log
V56M,-0.991 natural log
L45A,-0.875 natural log
T37V,-0.11 natural log
A29Y,-0.371 natural log
K39R,0.047 natural log
R30V,0.108 natural log
V56T,-0.815 natural log
R53H,-0.641 natural log
L45P,-1.1 natural log

# Sample 2
# Target: RING finger protein unkempt homolog, zinc fingers 1-6, GST-SBP tag (UNK, Homo sapiens, UniProt Q9C0B0, residues 30-357)
# UniProt Q9C0B0, sequence (30-357, looked up): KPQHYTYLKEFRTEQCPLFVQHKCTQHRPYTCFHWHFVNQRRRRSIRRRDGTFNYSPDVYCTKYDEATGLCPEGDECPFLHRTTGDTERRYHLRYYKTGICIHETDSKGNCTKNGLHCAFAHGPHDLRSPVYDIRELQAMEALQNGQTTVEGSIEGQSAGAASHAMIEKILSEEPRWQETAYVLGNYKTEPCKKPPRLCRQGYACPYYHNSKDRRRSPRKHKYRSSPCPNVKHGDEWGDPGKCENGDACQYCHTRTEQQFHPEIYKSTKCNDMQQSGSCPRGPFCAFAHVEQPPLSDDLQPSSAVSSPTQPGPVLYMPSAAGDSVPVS
# Technique: RNA Bind-n-Seq
# Form: RNA
# Sample: in vitro
# Tested at: not given
# Notes: RNA with constant flanks, human and mouse sites, ends assumed
# Relative to: input RNA pool
# Direction: higher = stronger binding
Sequence,bound/input enrichment [ratio]
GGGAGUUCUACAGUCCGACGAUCAGGGAGCUUCCAGGAAGACUUGCCUCAAACAACUGAGCCAAAGACAGACUGGUUAGAACGUAGUCAUAUGCUUUUGUGUGCAAAUAAUAUUUUCAAAGAACUAAUAAUAAUUUGAUUGAGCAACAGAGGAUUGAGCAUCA,2.15
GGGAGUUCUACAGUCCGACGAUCCGGCCCAUGCAGCAAAUGCAGCCCACUGCGCCAAGGAACAGCAAUUUGCGUGAAUUACCCAUAGCGCCGUCACACGUGAUAGAAAUGAGCAGCAGCCGCUGCUCUGCCACGCCCUCAGCACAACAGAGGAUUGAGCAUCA,0.256
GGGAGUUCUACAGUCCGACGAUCCACAAGUUGGAAGAAGCCUUACUGUUUUCAGGCCAGUUCAUGGAUGCUUUGCAGGCUUUAGUUGACUGGUUGUACAAGGUGGAGCCACAGUUGGCUGAGGACCAGCCUGUACAUGGGGACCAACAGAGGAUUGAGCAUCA,0.116
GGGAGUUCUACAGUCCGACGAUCGGUUGUCUGGUUUUGUUGUUUUUACAGGUGUUGUGGAAUAAAAACUGUAAGAAAAUUAAGUAUUUAAAAUGUUCCAAUAAAGUGGGGUUUUUUGUUAUUCUAAUAUAUUAUUGUGUACCUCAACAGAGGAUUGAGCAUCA,1.74
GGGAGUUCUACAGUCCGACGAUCUGCACUCUUUCAGCCUCAGCAGCACCCAGCACGUGACCAACAUGAUACUUUCUUCCUGCGAGGUUGGUAGCCCGGGAGCCUGGCCAAUGUGGUAGCAGAAGUCUCAAGUCUGGAUAAAGCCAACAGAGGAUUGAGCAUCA,0.189
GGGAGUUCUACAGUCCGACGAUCGCUAGCAGGCCCACACCAGACGAGCUGGAGGCCGUGCGCAAGUACUUCCAGCUAGAUGUUACCCUGGCUCAACUGUAUCACCACUGGGGUUCCGUGGACUCCCACUUCCAAGAGGUGGCUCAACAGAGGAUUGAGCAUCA,0.947
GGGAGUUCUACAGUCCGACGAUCCUACUGAUCCCUGUGAGCAACUCGGAGAUGGAAAAGGUGGACGGCUUGCUCACCUGCUGCUCCGUUUUUAUUAACAAGAAGAUAGACUCCUGAGCCAGAGAGUCCCUUCCCUGUGGCCAGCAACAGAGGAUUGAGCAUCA,0.119
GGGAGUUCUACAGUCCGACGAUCCAGAUUUUGGCAGGAGUUAGAAUAAAUCCCGGGGCCUGGGCUUCUCUAUUCUUGGCCCUCCGUAGUCUCCCUCCGAGAGGAGGCCAGAGGGAGAGGAGGAUCUCAGCAGGCCUCUAGCCGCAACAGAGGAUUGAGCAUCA,2.73

# Sample 3
# Target: CCND2, cyclin fold, Cln2 fusion (human)
# Technique: yeast growth competition, sequencing
# Sample: yeast
# Notes: weak parent motif
# Relative to: not given
# Direction: higher = stronger binding
# Starting sequence: KIF20B docking peptide (human); KRAKRKLYTSEIS
Substitution,normalised enrichment score
KRAKRKLATSEIS [Y8A],-0.127
KRAKRKLYTSEAS [I12A],0.0915
KRAKAKLYTSEIS [R5A],-0.544
KRAARKLYTSEIS [K4A],0.113
KRAKRKAYTSEIS [L7A],0.00273
KRAKRKLYTSEIA [S13A],-0.452

# Sample 4
# Target: ABI1, truncated, D143A, DHFR fusion (Arabidopsis thaliana)
# Technique: DHFR PCA, deep sequencing
# Sample: yeast
# Notes: methotrexate growth selection, single substitutions
# With: (+)-ABA 0.032 µM
# Relative to: wild-type fitted maximum
# Direction: higher = stronger binding
# Starting sequence: PYL1, truncated, DHFR fusion (Arabidopsis thaliana); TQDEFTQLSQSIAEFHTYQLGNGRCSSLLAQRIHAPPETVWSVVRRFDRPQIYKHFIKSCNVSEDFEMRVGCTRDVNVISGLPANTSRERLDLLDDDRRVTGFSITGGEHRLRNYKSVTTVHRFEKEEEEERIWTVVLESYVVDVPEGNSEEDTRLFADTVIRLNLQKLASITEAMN
Substitution,relative binding score [%]
R88K,31.7
N85W,42.9
K168A,-8.1
L169Q,5.52
E128Q,28
A175K,24.5
T119C,1.98
E4N,1.14
E129F,11.8
D153L,-2.09
D97V,27.8
R99K,46.3
R88G,-0.35
P37A,20.3
T1I,32.5
R74F,-3.05
P36R,10
Q167F,-5.24
E38M,3.48
Q2F,59.1
E4L,27.3

# Sample 5
# Target: Sal-like protein 4, full length isoform A (SALL4, Homo sapiens, UniProt Q9UJQ4, residues 1-1053)
# UniProt Q9UJQ4, sequence (whole entry, looked up): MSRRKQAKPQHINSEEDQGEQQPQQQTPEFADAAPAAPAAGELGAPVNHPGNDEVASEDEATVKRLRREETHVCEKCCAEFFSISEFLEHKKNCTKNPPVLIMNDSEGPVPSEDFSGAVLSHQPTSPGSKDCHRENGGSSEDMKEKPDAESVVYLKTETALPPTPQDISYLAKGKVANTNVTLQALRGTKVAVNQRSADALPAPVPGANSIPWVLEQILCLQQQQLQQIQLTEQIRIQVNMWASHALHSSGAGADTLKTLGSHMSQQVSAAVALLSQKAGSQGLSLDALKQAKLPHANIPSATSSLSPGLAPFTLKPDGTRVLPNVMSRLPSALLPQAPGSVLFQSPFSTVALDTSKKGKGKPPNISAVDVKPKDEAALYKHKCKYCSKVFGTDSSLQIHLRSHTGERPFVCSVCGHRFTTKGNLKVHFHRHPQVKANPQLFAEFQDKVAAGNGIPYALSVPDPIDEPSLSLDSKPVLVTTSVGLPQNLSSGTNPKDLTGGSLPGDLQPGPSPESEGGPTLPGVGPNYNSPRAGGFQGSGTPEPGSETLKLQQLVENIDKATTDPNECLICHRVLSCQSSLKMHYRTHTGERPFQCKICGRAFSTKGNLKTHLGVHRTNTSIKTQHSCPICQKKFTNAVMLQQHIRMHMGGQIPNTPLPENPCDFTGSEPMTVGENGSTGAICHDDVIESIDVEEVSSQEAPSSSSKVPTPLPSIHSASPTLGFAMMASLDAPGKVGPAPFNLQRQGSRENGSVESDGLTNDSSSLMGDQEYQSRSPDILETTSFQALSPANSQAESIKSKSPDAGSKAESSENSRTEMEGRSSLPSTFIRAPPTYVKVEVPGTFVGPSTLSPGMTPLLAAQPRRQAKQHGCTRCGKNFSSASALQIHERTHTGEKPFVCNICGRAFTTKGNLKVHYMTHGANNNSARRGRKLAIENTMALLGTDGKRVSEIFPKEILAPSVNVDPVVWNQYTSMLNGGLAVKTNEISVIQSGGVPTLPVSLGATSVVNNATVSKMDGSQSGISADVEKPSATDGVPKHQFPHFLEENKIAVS
# Technique: universal PBM
# Form: double-stranded DNA, one strand shown
# Sample: in vitro
# Tested at: 600 nM
# Notes: 8-mer, flanks averaged, mean of replicates
# Direction: higher = stronger binding
Sequence,E-score
GAACTCTA,0.0136
CCGAAGCG,-0.291
TCCCTTAA,0.143
CTCGCGAC,-0.186
CGGGTGCA,-0.158
ATATAAAA,0.343
ACATCATC,0.168
CAGATCAG,0.0174
AGCGCTCG,-0.229
TAGGCCTA,0.12
AATGCGAT,0.166
ATGCTACG,0.0249
CAGGATAC,-0.057
CTAGTTGA,0.0576
GTCTGAAC,-0.0761
CCCCAAAC,-0.11
GTCTCGCA,-0.218
CGCGGTAA,-0.0493
CCTCCCGA,-0.218
GAGGTATA,0.205
ATAGCAAG,0.235
ATTGGCAA,0.225
ATATTGCC,0.302
AGATTAAT,0.32

# Excerpt of the above (sample 5):
Sequence,E-score
CAGGATAC,-0.057
CTAGTTGA,0.0576
GTCTGAAC,-0.0761
CCCCAAAC,-0.11
GTCTCGCA,-0.218
CGCGGTAA,-0.0493
